Results of several laboratories.
Parts stem from different laboratories: compare values within a part only. Substitutions count along the parent as printed.

Study 1 — target: CCNA1, cyclin fold, Cln2 fusion (human); technique: yeast growth competition, sequencing; sample: yeast; notes: weak parent motif; relative to: not given; reading: higher = stronger binding
Parent: ITGB3BP docking peptide (human); MPVKRSLKLDGLL
| Variant | normalised enrichment score |
| --- | --- |
| MPVKRSLKADGLL [L9A] | 0.253 |
| MPVARSLKLDGLL [K4A] | 0.292 |
| MPVKRSLALDGLL [K8A] | 0.322 |
| MPVKRSLKFDGLL [L9F] | 0.641 |
| MPVKRSAKLDGLL [L7A] | 0.403 |
| MPVKRSLKLAGLL [D10A] | -0.0171 |
| APVKRSLKLDGLL [M1A] | 0.412 |
| MPVKRALKLDGLL [S6A] | 0.251 |

Study 2 — technique: competition protein-binding microarray; molecule type: double-stranded DNA, one strand shown; sample: in vitro; tested at: 2 µM; together with: Cbf1 competitor, 0.05 µM; reading: higher = stronger binding; all sequences stand within: … GTCTTGATTCGCTTGACGCTGCTG
Target: Phosphate system positive regulatory protein PHO4, full length, GST-tagged (PHO4, Saccharomyces cerevisiae, UniProt P07270, residues 1-312)
Notes: whole 60-bp probe, lowest competitor level
Residues (chain): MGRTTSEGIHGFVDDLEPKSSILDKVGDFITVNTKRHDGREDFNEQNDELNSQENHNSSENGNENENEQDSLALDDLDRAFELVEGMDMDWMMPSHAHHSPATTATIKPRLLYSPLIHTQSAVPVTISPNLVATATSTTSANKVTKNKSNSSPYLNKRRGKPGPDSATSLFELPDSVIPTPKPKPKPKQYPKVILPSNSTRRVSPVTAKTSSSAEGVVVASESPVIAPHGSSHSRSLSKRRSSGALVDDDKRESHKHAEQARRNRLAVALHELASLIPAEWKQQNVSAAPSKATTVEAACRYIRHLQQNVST
| Oligonucleotide | fluorescence intensity |
| --- | --- |
| AAAGCGGTAATTTTTCACGTGGTCTCACATATCTAT | 14000 a.u. |
| TCACTAAATTAGCTGCATGTGCGTTAAATCCACCAA | 11400 a.u. |
| GCCACTTTGTAGCGTCACAATGACTGGGTTTCCCAA | 3040 a.u. |
| GAGGTTGGCCTTTTGCACGTAGCTGTTGCTGTTGCT | 6320 a.u. |
| ACAAGTGCTTTAAATGATGTGACGGGTTATTCTGGA | 4390 a.u. |
| GAGGCACTGATCCATCACGTGGAGGAGAACAATTTA | 14000 a.u. |
| TTCATTGGTGCAGAAAGCGTGCTTTCCGGGTCCCAG | 8050 a.u. |
| AATACTTCTGAGTTCTACGTGGTGAAAAAATATTTT | 5540 a.u. |
| AAAACTTACTTCCGTCACATGCAAGACGTAGACCCA | 8600 a.u. |
| TGCGCAACAACTTGGACGGTGGGTGTATGTCTAGAA | 4950 a.u. |
| AAGTTGAAGAAAAGCCAGGTGACGGAGGTGCCCTAG | 3370 a.u. |
| CCATGCCCGGGTACCCACGGCTCCTCGGAGGCCGGG | 4260 a.u. |
| GGTTTATTTGGATCGCACGTGGCAATAGTGATGAGA | 17700 a.u. |
| AAGCGGCCGTTGGCGGCCGTGGGTAAGTTATGCATG | 5150 a.u. |
| GCGTCGAAATCTAATTTTGTGACAGTGTAGTTCTTA | 3570 a.u. |
| AAAGCGGTAATTTGTCCTGTGGGTGCAGATATCTAT | 4590 a.u. |
| AGGTTAGGTGTCCATCACGTGCTAAAACCAGCGACT | 15400 a.u. |
| CGGGGTTAAGTTTGATGGGTGGGTGGCTTGCAGCAG | 4760 a.u. |
| CTTTCCCGATCTTGCTGAGTGGGTGTAGCACATTTG | 4560 a.u. |
| ACAAGGGCCCTTAAAGGCGTGACTCGAAAAAGGGGC | 5780 a.u. |
| ACCTATATGAATTCTCATGTGTCTCGTCTGATGTTC | 5960 a.u. |

Study 3 — technique: RNA Bind-n-Seq; molecule type: RNA; sample: in vitro; tested at: 200 nM; notes: whole 134-nt RNA, ends assumed; together with: 150 mM KCl; relative to: input library; reading: higher = stronger binding
Target: Ras GTPase-activating protein-binding protein 1, full length (G3BP1, Homo sapiens, UniProt Q13283)
Chain of UniProt Q13283 (whole entry, looked up): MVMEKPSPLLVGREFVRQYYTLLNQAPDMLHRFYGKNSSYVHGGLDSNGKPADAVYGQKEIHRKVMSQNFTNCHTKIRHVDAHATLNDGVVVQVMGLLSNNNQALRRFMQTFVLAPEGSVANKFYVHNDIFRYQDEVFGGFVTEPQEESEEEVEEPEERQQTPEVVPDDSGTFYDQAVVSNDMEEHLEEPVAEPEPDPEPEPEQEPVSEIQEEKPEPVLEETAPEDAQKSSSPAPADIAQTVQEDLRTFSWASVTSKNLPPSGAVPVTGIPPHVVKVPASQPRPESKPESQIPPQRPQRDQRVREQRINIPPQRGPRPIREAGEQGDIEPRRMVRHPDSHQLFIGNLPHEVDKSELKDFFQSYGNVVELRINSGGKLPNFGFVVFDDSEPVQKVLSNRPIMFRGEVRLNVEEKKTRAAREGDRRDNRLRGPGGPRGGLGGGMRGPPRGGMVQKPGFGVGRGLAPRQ
All sequences stand within: GGGAGUUCUACAGUCCGACGAUC … UGGAAUUCUCGGGUGUCAAGG
| Oligonucleotide | log2 enrichment |
| --- | --- |
| UGCUUCUCUAUGGAAAGGACUUUCCCCCAAGCUGGACGAGGCAUUAAGAAGGAUAGAGGACUCCAGCAGGCUGACUCUACACUUCAUCAU | 0.343 |
| UGGGAGGUGUAUUUUGUUUAUUUUUUUAGCUCAUUUCCAGGGGUGGGAAUUUUUUUUUAAUAUGUGUCAUGAAUAAAGUUGUUUUUGAAA | 0.163 |
| UACUGCUCCUCAGCAGGAAGCGGAUGCUGAGGUGAACACAGAAACACUAAAUAAGUCCUCCCAGGGGAGCUCCUCGAGCACACAAUCAGC | 0.683 |
| AAGUCCUGUGCUACACAUCGUAUGUACCGAAUCGGGGUUUUGGGUUUUGGGUUUUGGAAAGUAUUAUGUUACGCCGUUCGGAUCUGCACU | -0.771 |
| CUCAAGUCCUGUGCUACACAUCGUAUGUACCGAAUCGGCCCGGCCCGGCCCGGAAAGUAUUAUGUUACGCCGUUCGGAUCUGCACUUCCA | -0.217 |
| CUCAAGUCCUGUGCUACACAUCGUAUGUACCGAAUCGGUUUUUGGUGGAAAGGAAAGUAUUAUGUUACGCCGUUCGGAUCUGCACUUCCA | -0.374 |
| UCAAGUCCUGUGCUACACAUCGUAUGUACCGAAUCGGUUUUUUUGGUGGUUUGGAAAGUAUUAUGUUACGCCGUUCGGAUCUGCACUUCC | -1.09 |
| UCCUGUGCUACACAUCGUAUGUACCGAAUCGGAAAAAAGGGGAAAAAAGGGAAAAAAGGAAAGUAUUAUGUUACGCCGUUCGGAUCUGCA | -0.645 |
| GUCCUGUGCUACACAUCGUAUGUACCGAAUCGGGGAAAAAGGGGAAAAAGGGAAAAAGGAAAGUAUUAUGUUACGCCGUUCGGAUCUGCA | -0.162 |
| AUUCUAUAAAUGGCAAGUAAGCCUGAAGUGAGGAUACUGCAAUUUUCGGAGAAAAGAACAGCAGCUCUUUAAGUGUUUGCAUUUUCUAUU | -1.52 |
| AGUCCUGUGCUACACAUCGUAUGUACCGAAUCGGGGUUUGGGGAAAAAGGGGUGGGGAAAGUAUUAUGUUACGCCGUUCGGAUCUGCACU | 0.614 |
| GCAGGAAGUAUAAACAAAUGGAAAUGCUUCGGAUAGUGGCAGGGGUGGGGGUUGCUAAGGAAAGGGUGGGAUGGGAGUGGGUAAAGAGUU | 1.15 |
| ACCAUGCAGGUGGGCAUCUUUGGGAAGUGGGGCAAGGGGGGGAUAGGGAGGGGGGUAACACUUUGGGAACAGGUGGUCCCAGGACGUUUC | 1.51 |
| CAAGUCCUGUGCUACACAUCGUAUGUACCGAAUCGGGUUUUGGUUUUGGGUUUUGGAAAGUAUUAUGUUACGCCGUUCGGAUCUGCACUU | -1.18 |

Study 4 — technique: protein binding microarray; molecule type: double-stranded DNA, one strand shown; sample: in vitro; tested at: not given; relative to: not given; reading: higher = stronger binding
Target: Histone acetyltransferase KAT6A, both winged helices, GST fusion (KAT6A, Homo sapiens, UniProt Q92794, residues 1-181)
Notes: 8-mer, flanks averaged, mean of 2 arrays, mostly near background
Construct (chain): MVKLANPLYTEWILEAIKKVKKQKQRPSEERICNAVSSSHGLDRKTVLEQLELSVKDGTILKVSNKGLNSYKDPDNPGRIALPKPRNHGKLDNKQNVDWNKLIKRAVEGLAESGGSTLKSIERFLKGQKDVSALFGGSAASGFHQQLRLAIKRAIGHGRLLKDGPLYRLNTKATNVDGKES
| Oligonucleotide | E-score |
| --- | --- |
| CCGCCAGA | -0.0197 |
| ATGGCAAA | -0.0182 |
| GCCTAGGC | 0.106 |
| CGTCCTTA | 0.0914 |
| CCTCGGAC | 0.15 |
| AGGATAGG | -0.243 |
| CCCCTCGC | -0.0436 |
| GCATGCGA | 0.125 |
| GATACTCC | -0.106 |
| GGCACGCC | 0.0952 |
| AAAAAAGT | -0.065 |
| CCAGGTCG | -0.173 |
| AAAAATAT | -0.138 |
| ACCGGGAC | 0.175 |
| CGTGTTCC | 0.164 |
| TATTAGCA | -0.161 |
| ATCGCTAA | -0.00102 |
| AGAGTGCC | -0.203 |
| AATTCGCG | 0.212 |
| AGAACGGA | 0.0883 |
| AAGAGCAG | -0.0979 |
| GGGGAACC | -0.105 |
| GAGGGGTA | -0.183 |

Study 5 — technique: RNA Bind-n-Seq; molecule type: RNA; sample: in vitro; tested at: 365 nM; relative to: no-protein control; reading: higher = stronger binding
Target: RNA binding protein fox-1 homolog 2, RRM domain, GST-SBP tag (RBFOX2, Homo sapiens, UniProt O43251-10, residues 100-194)
Notes: natural RNA segment, single round, ends assumed
All sequences stand within: GGGAGUUCUACAGUCCGACGAUC … UGGAAUUCUCGGGUGCCAA
Construct (chain): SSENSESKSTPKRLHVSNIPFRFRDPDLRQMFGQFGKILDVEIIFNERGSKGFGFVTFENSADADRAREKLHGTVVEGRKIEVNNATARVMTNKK
| Oligonucleotide | RBNS enrichment (R) |
| --- | --- |
| AAAACUCAUCUUGAAUUGUAGCUCCCAUAAUUGCCAUGUGUUGUGGGAAGGACCCAGUGGGAGAUAAUUGAAAUAUGGGGGCAGUUUCCGCCAUACUGUUCUGGUGAUAG | 1.48 |
| UAUAAUGCCUCCUUCCGGGGCAGAGAGCAGGCACUCCCAGCUGGAGCAGAAUAGCAGUUCAGGGUCGCUUAAGGAGUCACCACAACUUAUGUGUUGGGUGACCACAAAAU | 0.5 |
| AACAAUGUGUUUUCCACCCCACCCAAUGGGAUUGUUGAAGUAUUAACUGUGCUAAGAGAUCUUGACACAGCAGUAAGAUUCCAGUCUCCUUAUUACCAAACUCUCAACUC | 0.415 |
| CUCCUGCUGUAUUCAGGGGUGCCCCCUGGUGCUCAGCCUCUACCACCCCCAACCCUGCUCUUGGGUACCCAGAGGGGUCAUUUCUGAAUCCCUUGCCCAGAGGACAGACC | 0.562 |
| ACAAAGCUCAAUAAAUAUCCAUUACUCUGCUCAGAGUGUUGAGAGAGAAGCCCUAAUUAACAACGUUGGUGACUUGUGUAAAAUGGAUUUGUAACCUACAAGUCACCAAA | 0.553 |
| GCAAGAGGAUUAUGGCUAACAAGAAUAAAUACAUGGGAAGAGUGCUCCCCAUUGAUUGAAGAGUCACUGUCUGAAAGAAGCAAAGUUCAGUUUCAGCAACAAACAAACUU | 1.98 |
| AAGAUAAUUAAGAUCCCCCGUGGAGAAAGCAGUGACACAUUCACACAGCUGUUCCCUCGCAUGUUAUUUCAUGAACAUGACCUGUUUUCGUGCACUAGACACACAGAGUG | 1.67 |
| UUUGCAUGCCGACUUACAUAUAUUUGCAUGUUCGUUGACUAUCAAAGAGUGCAGAGCUCUCCCCAGCCCCGUGGGUGGUGACUUUGUUUUCCUGCGGGGCUCAGCCCCCU | 4.71 |
| AAGAAUAGGUCAUUUUCUAUUCACCAUCCUUUACUAUUAAGGGAAAGGAAAAGAACACUAGCUAAGGAAGGGAAAGGGAAGUGAUAUCAUAAAAGUAGCAACCUUCAUUU | 0.405 |
| UGGAAACCAGAAUGAUUUUGACAUACAGGAGAGCUGCAGUUGUGAAAGCACCAUCAUCAUAGAGGAUGAUGUAAUUAAAAAAUGGUCAGUGUGCAAAGAAAAGAACUGCU | 0.679 |
| UGCAGGCCCACCCCAGCCACCACUGAGUCCACUCGGAGUGCCCUGUGUUCCUGGAGAAGGCAUUCCAGGGUUGAAUCUUGUCCCAGCCUCAGCCUGGGACACCUAGGUGG | 0.278 |
| UCUGCUGAGUGGCUCUAGUCCUGAGCCUGGAGUUGCUGAGCUGACCCCAUUCUGAAAGUCUGGCUUAGCGGGCAACACAGAGCCCUCAGCAUCCCAAACAUUGCCAGGAG | 0.377 |

Single results of other studies
| Molecule | target | test | test system | setting | scale | measurement | value |
| --- | --- | --- | --- | --- | --- | --- | --- |
| PhoQ, residues 284 288 289 292 302 303 MLMVEA | PhoP, residues 12 14 15 18 19 NHFIF (Escherichia coli, UniProt P23836) | Sort-seq, item: YFP reporter | E. coli | PhoQ-PhoP variant library, together with: 10 µM Mg2+ | relative to: high Mg2+ state, higher = stronger signaling | fold induction | 4.1 |

Some of these lines once more (study 2):
| Oligonucleotide | fluorescence intensity |
| --- | --- |
| CCATGCCCGGGTACCCACGGCTCCTCGGAGGCCGGG | 4260 a.u. |
| TTCATTGGTGCAGAAAGCGTGCTTTCCGGGTCCCAG | 8050 a.u. |
| TGCGCAACAACTTGGACGGTGGGTGTATGTCTAGAA | 4950 a.u. |
| GCGTCGAAATCTAATTTTGTGACAGTGTAGTTCTTA | 3570 a.u. |
| CGGGGTTAAGTTTGATGGGTGGGTGGCTTGCAGCAG | 4760 a.u. |
